Measurements gathered from unrelated publications.
Every numbered part comes from another study and shows a few of its results, in no order.
Sequence of UniProt P10721 (whole entry, unmodified, looked up): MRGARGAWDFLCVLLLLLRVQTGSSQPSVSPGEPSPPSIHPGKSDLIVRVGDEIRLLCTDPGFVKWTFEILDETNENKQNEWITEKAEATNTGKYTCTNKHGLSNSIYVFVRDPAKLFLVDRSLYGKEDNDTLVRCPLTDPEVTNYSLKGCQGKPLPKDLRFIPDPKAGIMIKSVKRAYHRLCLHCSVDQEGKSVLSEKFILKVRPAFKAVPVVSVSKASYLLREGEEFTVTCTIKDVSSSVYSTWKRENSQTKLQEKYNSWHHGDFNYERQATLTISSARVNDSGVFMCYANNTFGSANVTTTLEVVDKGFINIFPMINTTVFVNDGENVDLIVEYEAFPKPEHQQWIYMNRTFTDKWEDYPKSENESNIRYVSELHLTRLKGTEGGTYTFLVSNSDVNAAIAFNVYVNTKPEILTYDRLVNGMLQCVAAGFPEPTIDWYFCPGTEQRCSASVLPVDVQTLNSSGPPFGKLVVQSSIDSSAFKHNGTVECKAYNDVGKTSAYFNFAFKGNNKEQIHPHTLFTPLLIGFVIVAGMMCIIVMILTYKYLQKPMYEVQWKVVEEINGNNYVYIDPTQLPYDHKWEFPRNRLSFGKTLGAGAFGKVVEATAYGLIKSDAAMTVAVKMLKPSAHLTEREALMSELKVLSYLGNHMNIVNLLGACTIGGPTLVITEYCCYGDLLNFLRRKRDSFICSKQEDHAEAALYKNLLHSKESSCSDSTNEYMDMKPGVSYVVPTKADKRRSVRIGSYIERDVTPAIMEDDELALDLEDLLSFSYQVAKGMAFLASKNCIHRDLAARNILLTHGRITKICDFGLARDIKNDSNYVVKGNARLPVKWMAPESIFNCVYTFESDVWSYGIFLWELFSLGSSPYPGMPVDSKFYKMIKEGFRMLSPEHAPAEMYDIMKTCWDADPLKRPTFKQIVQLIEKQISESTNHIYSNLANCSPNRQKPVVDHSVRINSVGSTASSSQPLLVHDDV
Sequence of UniProt Q07002 (whole entry, looked up): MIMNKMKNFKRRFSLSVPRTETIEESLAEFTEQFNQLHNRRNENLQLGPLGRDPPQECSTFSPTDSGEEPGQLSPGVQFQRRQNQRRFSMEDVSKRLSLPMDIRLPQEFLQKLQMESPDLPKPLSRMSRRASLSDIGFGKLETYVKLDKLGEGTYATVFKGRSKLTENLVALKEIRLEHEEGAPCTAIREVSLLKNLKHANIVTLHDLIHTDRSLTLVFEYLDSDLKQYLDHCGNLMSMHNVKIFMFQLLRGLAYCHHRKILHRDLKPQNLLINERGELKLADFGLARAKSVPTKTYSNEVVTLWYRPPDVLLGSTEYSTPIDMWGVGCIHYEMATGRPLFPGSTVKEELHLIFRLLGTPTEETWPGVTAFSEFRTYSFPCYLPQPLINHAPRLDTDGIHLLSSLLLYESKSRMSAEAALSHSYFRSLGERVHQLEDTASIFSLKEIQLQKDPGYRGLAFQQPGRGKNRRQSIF
Sequence of UniProt P20794 (whole entry, looked up): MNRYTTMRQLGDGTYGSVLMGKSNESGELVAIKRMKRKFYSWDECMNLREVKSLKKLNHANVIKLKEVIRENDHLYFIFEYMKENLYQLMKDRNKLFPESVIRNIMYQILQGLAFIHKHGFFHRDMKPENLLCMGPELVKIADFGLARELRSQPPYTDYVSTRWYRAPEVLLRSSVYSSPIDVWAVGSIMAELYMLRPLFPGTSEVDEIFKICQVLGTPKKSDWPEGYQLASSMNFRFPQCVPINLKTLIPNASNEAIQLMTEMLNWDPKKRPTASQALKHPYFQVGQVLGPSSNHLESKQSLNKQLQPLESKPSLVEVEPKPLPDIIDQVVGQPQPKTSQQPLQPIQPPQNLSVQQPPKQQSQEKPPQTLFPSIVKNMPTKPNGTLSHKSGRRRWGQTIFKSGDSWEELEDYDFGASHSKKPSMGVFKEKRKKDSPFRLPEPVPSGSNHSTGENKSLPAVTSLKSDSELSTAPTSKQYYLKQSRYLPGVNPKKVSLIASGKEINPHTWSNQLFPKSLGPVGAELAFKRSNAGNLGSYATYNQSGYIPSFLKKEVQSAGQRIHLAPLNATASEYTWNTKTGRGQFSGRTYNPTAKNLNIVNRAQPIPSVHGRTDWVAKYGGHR
Sequence of UniProt Q8IWQ3 (whole entry, looked up): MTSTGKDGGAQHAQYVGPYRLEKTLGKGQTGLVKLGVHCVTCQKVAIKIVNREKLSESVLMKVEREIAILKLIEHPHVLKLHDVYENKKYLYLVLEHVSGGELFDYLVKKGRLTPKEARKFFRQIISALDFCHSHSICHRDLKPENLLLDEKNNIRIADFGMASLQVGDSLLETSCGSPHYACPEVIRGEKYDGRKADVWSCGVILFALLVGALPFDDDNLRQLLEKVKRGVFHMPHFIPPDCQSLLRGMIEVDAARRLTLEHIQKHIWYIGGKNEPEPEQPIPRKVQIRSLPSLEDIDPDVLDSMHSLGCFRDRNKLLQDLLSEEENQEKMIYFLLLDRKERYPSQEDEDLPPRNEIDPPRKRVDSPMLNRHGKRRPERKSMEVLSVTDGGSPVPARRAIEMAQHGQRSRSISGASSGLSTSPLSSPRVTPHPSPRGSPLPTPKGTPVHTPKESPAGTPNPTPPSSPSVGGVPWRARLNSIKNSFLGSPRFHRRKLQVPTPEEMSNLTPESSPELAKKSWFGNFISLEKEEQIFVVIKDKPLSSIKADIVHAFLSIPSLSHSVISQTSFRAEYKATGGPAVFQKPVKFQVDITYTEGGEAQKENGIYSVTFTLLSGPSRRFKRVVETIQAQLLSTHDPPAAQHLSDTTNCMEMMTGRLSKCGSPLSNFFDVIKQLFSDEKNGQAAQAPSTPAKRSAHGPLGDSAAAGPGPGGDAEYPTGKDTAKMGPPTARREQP
Sequence of UniProt Q8TBX8 (whole entry, looked up): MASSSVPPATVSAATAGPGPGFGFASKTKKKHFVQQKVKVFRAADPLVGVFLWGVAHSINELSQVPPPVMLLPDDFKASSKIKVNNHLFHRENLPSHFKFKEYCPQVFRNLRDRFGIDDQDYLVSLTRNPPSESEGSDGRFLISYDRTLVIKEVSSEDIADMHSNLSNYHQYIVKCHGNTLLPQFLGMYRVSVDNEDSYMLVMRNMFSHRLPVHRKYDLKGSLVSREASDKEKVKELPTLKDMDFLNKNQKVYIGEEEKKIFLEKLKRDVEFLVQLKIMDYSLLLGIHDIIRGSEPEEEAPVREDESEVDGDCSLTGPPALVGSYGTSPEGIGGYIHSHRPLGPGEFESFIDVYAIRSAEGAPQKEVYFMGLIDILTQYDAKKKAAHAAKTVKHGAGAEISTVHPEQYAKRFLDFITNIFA
Sequence of UniProt P30874 (whole entry, looked up): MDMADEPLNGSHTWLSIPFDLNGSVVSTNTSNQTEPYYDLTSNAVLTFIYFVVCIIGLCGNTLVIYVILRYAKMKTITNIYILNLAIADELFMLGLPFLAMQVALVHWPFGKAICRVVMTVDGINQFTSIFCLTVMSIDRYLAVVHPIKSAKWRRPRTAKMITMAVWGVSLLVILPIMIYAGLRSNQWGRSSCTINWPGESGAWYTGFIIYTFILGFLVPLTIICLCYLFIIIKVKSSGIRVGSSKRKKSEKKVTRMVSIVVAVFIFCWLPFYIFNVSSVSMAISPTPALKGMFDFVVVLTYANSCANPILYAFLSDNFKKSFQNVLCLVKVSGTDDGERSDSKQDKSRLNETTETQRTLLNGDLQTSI
Sequence of UniProt Q13555 (whole entry, looked up): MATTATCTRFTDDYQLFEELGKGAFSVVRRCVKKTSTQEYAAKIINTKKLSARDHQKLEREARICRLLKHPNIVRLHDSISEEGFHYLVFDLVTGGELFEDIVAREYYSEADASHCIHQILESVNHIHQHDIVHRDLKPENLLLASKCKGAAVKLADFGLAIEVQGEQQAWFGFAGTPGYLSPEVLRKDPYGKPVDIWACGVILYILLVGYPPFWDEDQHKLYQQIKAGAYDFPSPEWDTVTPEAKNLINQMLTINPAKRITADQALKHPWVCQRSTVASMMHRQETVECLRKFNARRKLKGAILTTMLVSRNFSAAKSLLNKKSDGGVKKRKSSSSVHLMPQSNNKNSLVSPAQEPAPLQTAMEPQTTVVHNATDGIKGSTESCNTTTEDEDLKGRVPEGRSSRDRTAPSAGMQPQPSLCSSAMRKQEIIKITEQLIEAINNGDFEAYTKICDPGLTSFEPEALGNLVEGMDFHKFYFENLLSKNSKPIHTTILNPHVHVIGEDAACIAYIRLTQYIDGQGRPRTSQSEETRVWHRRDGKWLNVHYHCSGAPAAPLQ
Sequence of UniProt Q6W5P4 (whole entry, looked up): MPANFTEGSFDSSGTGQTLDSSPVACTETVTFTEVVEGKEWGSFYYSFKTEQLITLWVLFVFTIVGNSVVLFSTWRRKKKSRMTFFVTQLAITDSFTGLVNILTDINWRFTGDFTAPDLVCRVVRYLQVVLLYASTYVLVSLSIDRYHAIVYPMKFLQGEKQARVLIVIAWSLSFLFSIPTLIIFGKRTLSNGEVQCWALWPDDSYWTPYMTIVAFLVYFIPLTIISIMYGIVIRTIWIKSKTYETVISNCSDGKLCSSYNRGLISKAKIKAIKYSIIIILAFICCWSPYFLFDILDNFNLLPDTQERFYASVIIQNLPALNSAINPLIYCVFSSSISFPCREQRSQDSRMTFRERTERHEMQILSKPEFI

Block 1 — SMILES: CC(C)CN(C)c1nc(N)c(C(=O)N=C(N)N)nc1Cl; read-out: β-arrestin recruitment; mode: agonist; technique: PRESTO-Tango; tested at: 10 µM; baseline: untreated
target	fold over basal
CNR1 (Homo sapiens, UniProt P21554)	0.75
SSTR3 (Homo sapiens, UniProt P32745)	1.39 fold
Proto-oncogene Mas (Homo sapiens, UniProt P04201)	1.24
ADORA2B (Homo sapiens, UniProt P29275)	0.53
MRGPRD (Homo sapiens, UniProt Q8TDS7)	1.1
NPSR1 (Homo sapiens, UniProt Q6W5P4)	0.84
P2Y purinoceptor 2 (P2RY2, Homo sapiens, UniProt P41231)	0.65
GRM7 (Homo sapiens, UniProt Q14831)	0.84 fold
CCR4 (Homo sapiens, UniProt P51679)	1.35
ADGRG1 (Homo sapiens, UniProt Q9Y653)	0.84
SSTR2 (Homo sapiens, UniProt P30874)	0.69

Block 2 — cell line: A-375; tested at: 100 µM; time: 36 h
Structure (SMILES)	viability [%]
Nc1nc(NC2CC2)c2ncn([C@H]3C=C[C@@H](CO)C3)c2n1	98.1
O=C(O)CCCc1ccccc1	122
Cc1cc(=O)oc2cc(O)ccc12	88.8
Cn1nnc(-c2ccc(-c3ccc(N4C[C@H](CO)OC4=O)cc3F)cn2)n1	90.9
CC(C)[C@H](N)C(=O)OCCOCn1cnc2c(=O)[nH]c(N)nc21	119
CN(C)/N=N/c1[nH]cnc1C(N)=O	81.4
CCc1c(C)[nH]c2c1C(=O)C(CN1CCOCC1)CC2 (stereo not shown)	102
CCCc1nc(C)c2c(=O)[nH]c(-c3cc(S(=O)(=O)N4CCN(CC)CC4)ccc3OCC)nn12	11.6
CCN(CC)CCNC(=O)c1ccc(N)cc1	111
CC(C)[N+](C)(CCOC(=O)C1c2ccccc2Oc2ccccc21)C(C)C	98.7
Cc1ccnc(NS(=O)(=O)c2ccc(N)cc2)n1	114
C[N+]1(C)[C@@H]2C[C@@H](OC(=O)C(O)(c3cccs3)c3cccs3)C[C@H]1[C@@H]1O[C@@H]12	112
NC(=O)c1cnccn1	104

Block 3 — read-out: enzyme activity; mode: inhibitor; tested at: 10 µM
Target: Calcium/calmodulin-dependent protein kinase type II subunit alpha (CAMK2A, Homo sapiens, UniProt Q9UQM7)
Sequence of UniProt Q9UQM7 (whole entry, looked up): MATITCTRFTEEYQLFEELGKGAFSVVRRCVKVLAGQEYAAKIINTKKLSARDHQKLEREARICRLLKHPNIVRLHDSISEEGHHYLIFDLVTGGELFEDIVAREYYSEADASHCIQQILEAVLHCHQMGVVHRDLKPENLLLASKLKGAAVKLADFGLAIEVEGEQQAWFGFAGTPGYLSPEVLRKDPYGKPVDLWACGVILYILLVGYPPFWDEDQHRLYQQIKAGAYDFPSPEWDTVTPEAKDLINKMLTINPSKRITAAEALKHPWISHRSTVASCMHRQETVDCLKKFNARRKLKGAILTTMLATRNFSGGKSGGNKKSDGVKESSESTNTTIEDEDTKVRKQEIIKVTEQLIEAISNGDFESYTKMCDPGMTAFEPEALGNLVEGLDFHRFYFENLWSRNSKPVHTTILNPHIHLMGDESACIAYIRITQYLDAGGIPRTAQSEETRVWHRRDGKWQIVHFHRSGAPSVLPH
SMILES	inhibition [%]
O=C(Nc1ccc(O)cc1)c1ccccc1O	-5
CCCCCC1=C(C)CCC1=O	-4
COC(=O)/C=C/C(=O)OC	12
C/C=C1\C(CC(=O)OC[C@H]2O[C@@H](OCCc3ccc(O)cc3)[C@H](O)[C@@H](O)[C@@H]2O)C(C(=O)OC)=CO[C@H]1O[C@@H]1O[C@H](CO)[C@@H](O)[C@H](O)[C@H]1O (stereo partly shown)	3
O=C1CCCCN1	-26
CC(/C=C1\SC(=S)N(CC(=O)O)C1=O)=C\c1ccccc1	2
CCCCCC(=O)O[C@H](CC(=O)[O-])C[N+](C)(C)C	-29
COc1ccc(-c2ccc3cc(C(=O)O)ccc3c2)cc1[C@]12C[C@H]3C[C@H](C[C@H](C3)C1)C2	-9
CC1(C)S[C@@H]2[C@H](NC(=O)[C@H](NC(=O)N3CCN(S(C)(=O)=O)C3=O)c3ccccc3)C(=O)N2[C@H]1C(=O)O	6
COC(=O)[C@@H](Cc1ccc(O)c(O)c1)OC(=O)/C=C/c1ccc(O)c(O)c1	-17
CC(C)=CCC[C@](C)(O[C@@H]1O[C@H](CO)[C@@H](O)[C@H](O)[C@H]1O)[C@H]1CC[C@]2(C)[C@@H]1[C@H](O)C[C@@H]1[C@@]3(C)CC[C@H](O[C@@H]4O[C@H](CO)[C@@H](O)[C@H](O)[C@H]4O[C@@H]4O[C@H](CO)[C@@H](O)[C@H](O)[C@H]4O)C(C)(C)[C@@H]3CC[C@]12C	-20
Cc1noc(NS(=O)(=O)c2ccc(N)cc2)c1C	6

Block 4 — read-out: cell-free assay; technique: competition with immobilised ligand; tested at: 1 µM
SMILES: Cc1nccc(COC(=O)N2C[C@@H]3[C@@H](CNC(=O)c4ccc5[nH]nnc5c4)[C@@H]3C2)n1
target	remaining binding [%]
NUAK1 (Homo sapiens, UniProt O60285)	82
MUSK (Homo sapiens, UniProt O15146)	100
PRKCE (Homo sapiens, UniProt Q02156)	100
TLK2 (Homo sapiens, UniProt Q86UE8)	100
Mast/stem cell growth factor receptor Kit, autoinhibited (KIT, Homo sapiens, UniProt P10721)	79
MAPK1 (Homo sapiens, UniProt P28482)	100
PIP5K1C (Homo sapiens, UniProt O60331)	93
Insulin receptor (INSR, Homo sapiens, UniProt P06213)	84
CDK18 (Homo sapiens, UniProt Q07002)	100
ZAP70 (Homo sapiens, UniProt P43403)	97
MAK (Homo sapiens, UniProt P20794)	98
CAMK2G (Homo sapiens, UniProt Q13555)	100
SLK (Homo sapiens, UniProt Q9H2G2)	100
COQ8A (Homo sapiens, UniProt Q8NI60)	84
Tyrosine-protein kinase ABL1, phosphorylated (ABL1, Homo sapiens, UniProt P00519, H396P)	85
CDKL3 (Homo sapiens, UniProt Q8IVW4)	99
PRKAA1 (Homo sapiens, UniProt Q13131)	92
CDKL2 (Homo sapiens, UniProt Q92772)	95
DYRK2 (Homo sapiens, UniProt Q92630)	94
BRSK2 (Homo sapiens, UniProt Q8IWQ3)	86
PIP4K2C (Homo sapiens, UniProt Q8TBX8)	100
MAP3K12 (Homo sapiens, UniProt Q12852)	72
KIT (Homo sapiens, UniProt P10721, V559D)	86
STK32B (Homo sapiens, UniProt Q9NY57)	97
PIK3CA (Homo sapiens, UniProt P42336, M1043I)	100
